Assay results collected from several papers.
Compare with care: the assays were run in different laboratories.
KCNH2: Voltage-gated inwardly rectifying potassium channel KCNH2 (KCNH2, Homo sapiens, UniProt Q12809)
Chain of UniProt Q12809 (whole entry, looked up): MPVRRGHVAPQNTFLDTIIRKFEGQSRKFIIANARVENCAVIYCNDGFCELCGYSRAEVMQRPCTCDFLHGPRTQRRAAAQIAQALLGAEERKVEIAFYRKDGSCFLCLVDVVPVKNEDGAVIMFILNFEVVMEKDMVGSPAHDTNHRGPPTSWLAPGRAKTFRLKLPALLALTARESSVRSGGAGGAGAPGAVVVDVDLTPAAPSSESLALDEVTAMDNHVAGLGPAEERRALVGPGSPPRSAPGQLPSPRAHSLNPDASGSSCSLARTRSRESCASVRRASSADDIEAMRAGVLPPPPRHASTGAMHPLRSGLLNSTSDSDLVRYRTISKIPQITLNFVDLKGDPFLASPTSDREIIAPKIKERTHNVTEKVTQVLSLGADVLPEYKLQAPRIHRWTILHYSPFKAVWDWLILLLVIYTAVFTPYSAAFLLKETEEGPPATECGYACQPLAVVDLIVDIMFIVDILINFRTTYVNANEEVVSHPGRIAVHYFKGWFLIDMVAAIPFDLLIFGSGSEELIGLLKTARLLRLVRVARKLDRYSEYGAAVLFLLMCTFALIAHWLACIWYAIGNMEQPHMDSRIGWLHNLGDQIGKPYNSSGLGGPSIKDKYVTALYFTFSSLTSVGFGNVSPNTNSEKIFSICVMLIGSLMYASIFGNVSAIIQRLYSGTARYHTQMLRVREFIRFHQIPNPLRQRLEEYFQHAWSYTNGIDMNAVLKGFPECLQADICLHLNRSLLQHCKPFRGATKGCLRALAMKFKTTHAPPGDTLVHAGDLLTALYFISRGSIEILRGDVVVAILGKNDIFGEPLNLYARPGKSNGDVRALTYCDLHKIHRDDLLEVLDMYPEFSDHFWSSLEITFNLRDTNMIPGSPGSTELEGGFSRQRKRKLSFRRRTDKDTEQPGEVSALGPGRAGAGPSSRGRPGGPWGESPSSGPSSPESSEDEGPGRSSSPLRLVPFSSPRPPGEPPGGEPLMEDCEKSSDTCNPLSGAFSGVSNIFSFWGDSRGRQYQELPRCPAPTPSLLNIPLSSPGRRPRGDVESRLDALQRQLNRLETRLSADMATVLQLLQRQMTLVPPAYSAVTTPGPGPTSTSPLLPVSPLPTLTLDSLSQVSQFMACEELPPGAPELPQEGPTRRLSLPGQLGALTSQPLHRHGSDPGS
Chain of UniProt Q96FL8 (whole entry, looked up): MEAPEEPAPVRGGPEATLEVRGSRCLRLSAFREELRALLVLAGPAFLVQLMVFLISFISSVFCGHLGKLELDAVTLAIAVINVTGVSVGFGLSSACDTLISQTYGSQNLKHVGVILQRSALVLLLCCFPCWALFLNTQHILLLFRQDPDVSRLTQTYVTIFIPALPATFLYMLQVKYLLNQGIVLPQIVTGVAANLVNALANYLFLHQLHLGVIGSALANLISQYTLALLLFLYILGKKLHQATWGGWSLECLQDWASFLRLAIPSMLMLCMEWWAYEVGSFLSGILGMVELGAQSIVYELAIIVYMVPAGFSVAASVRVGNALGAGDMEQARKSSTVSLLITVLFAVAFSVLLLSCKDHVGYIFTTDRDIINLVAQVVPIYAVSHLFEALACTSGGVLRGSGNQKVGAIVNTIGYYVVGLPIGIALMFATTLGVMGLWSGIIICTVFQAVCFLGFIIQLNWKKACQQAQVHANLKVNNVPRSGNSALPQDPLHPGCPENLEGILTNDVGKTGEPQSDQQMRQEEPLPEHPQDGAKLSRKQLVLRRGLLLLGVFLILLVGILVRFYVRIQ

SMILES | target or system | assay | system | setting | quantity | value
O=C1CC[C@H](N2Cc3cc(N4CCN(CC5CCN(c6ccc([C@@H]7c8ccc(O)cc8CC[C@@H]7c7ccccc7)cc6)CC5)CC4)ccc3C2=O)C(=O)N1 |  |  | female Sprague-Dawley rat, plasma | oral, 20 mg/kg, fasted | Cmax | 1430 ng/mL
O=C(c1ccc(F)cc1)C1CCN(CCn2c(=O)[nH]c3ccccc3c2=O)CC1 |  | metabolic stability, mass spectrometry | human, liver microsomes | 1 h | compound remaining | 31.2%
COc1cccc(-c2n[nH]c(SCc3ccccn3)n2)c1OC |  |  | female Sprague-Dawley rat, plasma | oral, 100 mg/kg, 4 h, single dose | concentration | 10200 ng/mL
CNCCN1CCN(c2cnc3c(cc(C(=O)NCc4ccc(Cl)cc4)c(=O)n3CC(=O)N3CC(C)(F)C3)n2)C1=O | KCNH2 | ion current, inhibitor |  | 40 µM | inhibition | 42.2%
Nc1ccn([C@@H]2O[C@H](CO)[C@@H](O)C2(F)F)c(=O)n1 | MDA-MB-231 | cell growth or viability, MTT |  | 2.5 µg/mL, 48 h | viability | 61.9%
COc1cccc(OC)c1-c1cc(C(=O)NC2(C(=O)O)C3CC4CC(C3)CC2C4)nn1-c1ccc(C(=O)N(C)CCCN(C)CCCN(C)C(=O)CN2CCN(CC(=O)[O-])CCN(CC(=O)[O-])CCN(CC(=O)[O-])CC2)cc1C(C)C.[177Lu+3] (stereo not shown) | HT-29 tumour model |  | host not given, bone | 7 days, tumour-bearing | tracer uptake | 0.6 %ID/g
CNC(=O)c1cc(Oc2ccc(NC(=O)Nc3ccc(Cl)c(C(F)(F)F)c3)cc2)ccn1 | WISH | cell growth or viability, MTT |  | 12.5 µM, 24 h | viability | 40.2%
CCOC(=O)[C@@]12C[C@@H]1[C@@H](n1ccc3c(NC)nc(C#Cc4ccc(Cl)s4)nc31)[C@H](O)[C@@H]2O |  |  | male Sprague-Dawley rat, plasma | oral, 10 mg/kg, 8 h | concentration | 8.28 ng/mL
COc1cccc(NC(=O)Nc2ccc(Oc3nc4ccccc4n4cnnc34)cc2)c1 | WISH | cell growth or viability, MTT |  | 1.56 µM, 24 h | viability | 100%
COc1cc(/C=C/C(=O)C(=Cc2ccc(O)cc2)C(=O)/C=C/c2ccc(O)c(OC)c2)ccc1O | WRL68 | cell growth or viability, MTT |  | 99 µg/mL, 48 h | viability | 82.5%
CCOC(=O)C1=C(CN2CCC[C@@H]2C(=O)Nc2ccc(B(O)O)cc2)NC(c2nccs2)=N[C@H]1c1ccc(F)cc1Br | KCNH2 | ion current, inhibitor, patch clamp | HEK293 | 10 µM, pH 7.4 | inhibition | 61%
COc1ccc([C@@H](O)c2cc(-c3ncnc4cc(N5CCOCC5)ccc34)c(F)cc2Cl)nn1 |  |  | human, plasma | oral, 100 mg, multiple doses, twice daily, patients | AUC(0-t) | 3230 ng·h/mL
NCc1cc2c(cc1F)C(=O)N(C1CCC(=O)NC1=O)C2 (stereo not shown) |  |  | male cynomolgus monkey, plasma | oral, 0.3 mg/kg, 3 h | concentration | 1.4 ng/mL
N#C[C@@]12C[C@@H]1[C@@H](n1cnc3c(N[C@@H](C4CCC4)C4CC4)nc(I)nc31)[C@H](O)[C@@H]2O |  |  | male Wistar rat, plasma | oral, 3 mg/kg | bioavailability | 13.1%
COc1cccc(OC)c1-c1cc(C(=O)NC2(C(=O)O)C3CC4CC(C3)CC2C4)nn1-c1ccc(C(=O)N(C)CCCN(C)CCCN(C)C(=O)CN2CCN(CC(=O)[O-])CCN(CC(=O)[O-])CCN(CC(=O)[O-])CC2)cc1C(C)C.[177Lu+3] (stereo not shown) | HT-29 tumour model |  | host not given, stomach | intravenous, 4 h, tumour-bearing | tracer uptake | 1.5 %ID/g
CC1(F)CN(C(=O)Cn2c(=O)c(C(=O)NCc3ccc(Cl)cc3)cc3nc(N4CCCC4=O)cnc32)C1 | KCNH2 | ion current, inhibitor, patch clamp |  | 40 µM | inhibition | 45%
O=c1[nH]c(=O)c(Cc2cccc(C(F)(F)F)c2)c([C@H]2CC[C@H](c3ccccc3)CC2)[nH]1 | SLC47A1 (Homo sapiens, UniProt Q96FL8) | transporter uptake, inhibitor |  | 8 µM | inhibition | < 50%
CCN1CCN(Cc2ccc(NC(=O)c3ccc(C)c(NC(=O)c4cncc(-c5cccs5)c4)c3)cc2C(F)(F)F)CC1 |  |  | mouse, plasma | intraperitoneal, 10 mg/kg, single dose | AUC(0-inf) | 1210 ng·h/mL
C[C@@]12COCO[C@@H]1CC[C@]1(C)[C@@H]2CC[C@@H]2CN(Cc3ccco3)[C@@H](C3=CCOC3=O)C[C@H]21 | MRC5 | cell growth or viability, ATP luminescence |  | 25 µM, 72 h | cell death | -13.1%
